Assay results from different studies.
Compare with care: the assays were run in different laboratories. Values joined by “and” are separate records of one study, mostly repeats; a detail may differ. ± marks the error that the study gave.

Under “participants with TRAE nausea”, `O=C1CC[C@H](N2Cc3cc(N4CCN(CC5CCN(c6ccc([C@@H]7c8ccc(O)cc8CC[C@@H]7c7ccccc7)cc6)CC5)CC4)ccc3C2=O)C(=O)N1` is recorded as 0% (human; oral, 200 mg, added: dabigatran etexilate 75 mg).
Under “patients with adverse event”, `Cc1ccc(C(=O)N(CCCN)C(c2nc3snc(C)c3c(=O)n2Cc2ccccc2)C(C)C)cc1` (stereo not shown) is recorded as 0% (mucosal inflammation grade ≥3 (CTCAE); human patients; intravenous, 10 mg/day).
Under “decreased white cell count incidence”, `COc1cc(Nc2ncc3c(n2)-c2ccc(Cl)cc2C(c2c(F)cccc2OC)=NC3)ccc1C(=O)O` is recorded as 17% (patients; oral, dose not given, grade 3, any attribution, added: pembrolizumab).
Under “adverse event abdominal pain”, `Cc1cc(Nc2ccc(S(F)(F)(F)(F)F)cc2)n2nc(C(C)(F)F)nc2n1` is recorded as 0% (Plasmodium vivax malaria patients; oral, 800 mg).
`COc1ccc([C@@H](O)c2cc(-c3ncnc4cc(N5CCOCC5)ccc34)c(F)cc2Cl)nn1` gave a renal clearance of 2.03 mL/min (geometric mean; healthy volunteers, urine; oral, 100 mg, fasted oral suspension).
`C=CCN1CC(=O)N2[C@@H](Cc3ccc(O)cc3F)C(=O)N(Cc3cccc(N4CC(N5CCN(CC)CC5)C4)n3)C[C@@H]2N1C(=O)NCc1ccccc1`: “patients with ALT increased” 0% (advanced solid tumour patients; 30 mg twice daily, treatment-related, any grade).
Under “patients with adverse event”, `Cc1cc(NC2CCN(C(=O)OC3CCN(C(=O)/C=C/CN(C)C)C3)CC2)n2ncc(C(C)C)c2n1` (stereo not shown) is recorded as 0% (Phase I dose escalation CTCAE v4.0, item: abdominal pain; patients with advanced solid tumours; dose not given, QD dosing grade 3 or higher).
For `CCc1c(-c2ccccc2)c(-c2ccccc2)nn1-c1ccccc1-c1cccc(OCC(=O)O)c1`, the Clast was 2.64 ng/mL and 1.53 ng/mL and 1.1 ng/mL (Sprague-Dawley rat; oral, dose not given).
With `N#Cc1ccc2c(c1)[C@H]1CCCN(C(=O)c3ccc4[nH]cnc4c3)[C@H]1C2` the SHBG level was 24 nmol/L (human males; 240 mg, day 15).
For `Cc1ccc(S(=N)C2CC2)cc1` (stereo not shown), the metabolic stability was less than 23% (human liver microsomes; relative to: hepatic blood flow).
The tissue/plasma ratio of `CN1C[C@H](COc2nccc3c(NCc4ccco4)cc(Cl)nc23)OC1=O` is reported as 0.75 (C57BL/6 mouse, heart; oral, 30 mg/kg, 0.5 h; relative to: heart over plasma).
`COc1ccnc(C(N)=O)c1O` has a DT50 of 1000 days (water/sediment; whole system, geometric mean, no decline default).
For `Cc1cn([C@H]2C[C@H]([18F])[C@@H](CO)O2)c(=O)[nH]c1=O`, “fraction of dose remaining” read roughly 9% (PET/CT; Sprague-Dawley rat, nasal cavity; intranasal, dose not given, 20 min; relative to: dose).
Under “urinary chloride excretion change”, `Cc1ccc([C@@H]2O[C@H](CO)[C@@H](O)[C@H](O)[C@H]2O)cc1Cc1ccc(-c2ccc(F)cc2)s1` is recorded as -29.8 mEq (Japanese type 2 diabetes patients; 100 mg, day 6, 24 h urine collection; relative to: baseline).
With `COc1nnc2ccc(N3CCC(c4ccc(OCCN5CCN(C)C(=O)[C@H]5C)cc4)CC3)nn12` the AUClast was 0.669 µM·h (human, plasma; oral, 40 mg once daily, single dose, monotherapy).
`C[Si](C)(C)O[Si](C)(C)O[Si](C)(C)C` gave a log KAW of 3.24 (1.9 to 6.0 µg/L, 35.0 °C).
`CCN1/C(=C/C(C)=O)Sc2ccc(F)cc21`: “systolic blood pressure change” 99.1 ± 3.6% (cynomolgus monkey; oral, 30 mg/kg, 0.5 h post-dose; relative to: pre-dose).
`CCn1cc(C(=O)N2CCOCC2)c(=O)c2cc(NC3Cc4ccccc4C3)cnc21` gave a Tmax of 2 h (human, fasted; oral suspension, 600 mg single dose, median).
The nausea incidence of `CCNC(=O)[C@@H]1CCCN1C(=O)[C@H](CCCNC(=N)N)NC(=O)[C@H](CC(C)C)NC(=O)[C@@H](CC(C)C)NC(=O)[C@H](Cc1ccc(O)cc1)NC(=O)[C@H](CO)NC(=O)[C@H](Cc1c[nH]c2ccccc12)NC(=O)[C@H](Cc1c[nH]cn1)NC(=O)[C@@H]1CCC(=O)N1` is reported as 43% (healthy female volunteers; dose not given, all treatment groups combined).

Repeated from above:
`COc1ccc([C@@H](O)c2cc(-c3ncnc4cc(N5CCOCC5)ccc34)c(F)cc2Cl)nn1` gave a renal clearance of 2.03 mL/min (geometric mean; healthy volunteers, urine; oral, 100 mg, fasted oral suspension).
`C=CCN1CC(=O)N2[C@@H](Cc3ccc(O)cc3F)C(=O)N(Cc3cccc(N4CC(N5CCN(CC)CC5)C4)n3)C[C@@H]2N1C(=O)NCc1ccccc1`: “patients with ALT increased” 0% (advanced solid tumour patients; 30 mg twice daily, treatment-related, any grade).
Under “patients with adverse event”, `Cc1cc(NC2CCN(C(=O)OC3CCN(C(=O)/C=C/CN(C)C)C3)CC2)n2ncc(C(C)C)c2n1` (stereo not shown) is recorded as 0% (Phase I dose escalation CTCAE v4.0, item: abdominal pain; patients with advanced solid tumours; dose not given, QD dosing grade 3 or higher).
